Assay results pooled from the literature.
Each numbered part is a random draw from the data of one study; scales do not carry over between parts.
UniProt Q8WTQ7, sequence (whole entry, looked up): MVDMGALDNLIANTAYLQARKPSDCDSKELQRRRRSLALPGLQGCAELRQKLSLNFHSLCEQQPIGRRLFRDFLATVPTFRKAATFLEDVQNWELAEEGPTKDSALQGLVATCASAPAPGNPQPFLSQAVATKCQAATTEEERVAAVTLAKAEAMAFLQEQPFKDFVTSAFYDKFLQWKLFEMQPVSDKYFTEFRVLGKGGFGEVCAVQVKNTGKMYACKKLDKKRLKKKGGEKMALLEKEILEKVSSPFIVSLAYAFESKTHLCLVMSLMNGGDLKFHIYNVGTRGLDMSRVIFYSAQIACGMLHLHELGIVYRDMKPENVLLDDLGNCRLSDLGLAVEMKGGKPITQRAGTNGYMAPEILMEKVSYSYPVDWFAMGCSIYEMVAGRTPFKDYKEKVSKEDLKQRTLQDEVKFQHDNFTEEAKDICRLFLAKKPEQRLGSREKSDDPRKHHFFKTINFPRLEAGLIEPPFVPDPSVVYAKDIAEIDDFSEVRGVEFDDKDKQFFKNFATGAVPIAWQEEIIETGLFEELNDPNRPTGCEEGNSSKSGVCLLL
UniProt Q96D53, sequence (whole entry, looked up): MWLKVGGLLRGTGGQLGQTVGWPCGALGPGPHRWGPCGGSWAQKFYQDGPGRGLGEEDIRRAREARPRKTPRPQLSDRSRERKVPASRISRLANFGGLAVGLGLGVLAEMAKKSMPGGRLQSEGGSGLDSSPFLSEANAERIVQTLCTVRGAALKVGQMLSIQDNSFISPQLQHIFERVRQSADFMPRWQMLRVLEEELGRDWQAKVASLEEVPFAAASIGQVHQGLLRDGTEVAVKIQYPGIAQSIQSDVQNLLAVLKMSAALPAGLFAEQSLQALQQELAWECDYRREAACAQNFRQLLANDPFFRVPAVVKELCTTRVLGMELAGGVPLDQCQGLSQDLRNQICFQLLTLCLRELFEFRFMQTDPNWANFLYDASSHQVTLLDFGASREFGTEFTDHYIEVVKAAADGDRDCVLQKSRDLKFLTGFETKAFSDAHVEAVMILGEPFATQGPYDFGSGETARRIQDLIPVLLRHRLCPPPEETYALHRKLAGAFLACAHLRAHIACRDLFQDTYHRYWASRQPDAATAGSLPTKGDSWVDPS
UniProt P80192, sequence (whole entry, looked up): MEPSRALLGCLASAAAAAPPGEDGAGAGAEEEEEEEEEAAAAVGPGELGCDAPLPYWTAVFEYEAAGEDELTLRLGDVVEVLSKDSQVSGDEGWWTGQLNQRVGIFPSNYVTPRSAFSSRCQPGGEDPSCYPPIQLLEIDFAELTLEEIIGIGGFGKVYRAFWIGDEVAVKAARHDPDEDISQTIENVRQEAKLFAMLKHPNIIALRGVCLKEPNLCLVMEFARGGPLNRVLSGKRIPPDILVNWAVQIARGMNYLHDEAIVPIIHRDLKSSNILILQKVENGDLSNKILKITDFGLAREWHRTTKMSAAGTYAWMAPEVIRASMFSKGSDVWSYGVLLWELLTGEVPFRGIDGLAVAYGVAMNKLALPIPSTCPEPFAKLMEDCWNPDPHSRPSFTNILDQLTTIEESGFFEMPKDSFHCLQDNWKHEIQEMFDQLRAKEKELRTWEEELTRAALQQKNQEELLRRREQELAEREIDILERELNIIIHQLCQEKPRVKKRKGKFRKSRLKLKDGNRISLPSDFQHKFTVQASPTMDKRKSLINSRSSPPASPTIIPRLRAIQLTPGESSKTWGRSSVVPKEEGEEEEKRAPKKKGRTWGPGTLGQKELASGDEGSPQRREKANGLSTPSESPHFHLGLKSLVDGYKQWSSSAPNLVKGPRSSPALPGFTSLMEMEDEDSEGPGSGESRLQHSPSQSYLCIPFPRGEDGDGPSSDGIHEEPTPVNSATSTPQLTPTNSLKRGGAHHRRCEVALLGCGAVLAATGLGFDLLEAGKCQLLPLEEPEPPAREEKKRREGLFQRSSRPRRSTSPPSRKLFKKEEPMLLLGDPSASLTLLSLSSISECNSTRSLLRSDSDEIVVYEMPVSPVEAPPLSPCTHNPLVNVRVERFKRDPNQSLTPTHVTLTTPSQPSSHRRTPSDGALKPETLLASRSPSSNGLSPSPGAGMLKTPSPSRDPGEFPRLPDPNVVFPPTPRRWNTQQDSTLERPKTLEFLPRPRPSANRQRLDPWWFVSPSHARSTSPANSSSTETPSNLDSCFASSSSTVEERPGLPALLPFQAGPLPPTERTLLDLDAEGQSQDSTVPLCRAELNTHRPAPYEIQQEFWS
UniProt O14936, sequence (whole entry, looked up): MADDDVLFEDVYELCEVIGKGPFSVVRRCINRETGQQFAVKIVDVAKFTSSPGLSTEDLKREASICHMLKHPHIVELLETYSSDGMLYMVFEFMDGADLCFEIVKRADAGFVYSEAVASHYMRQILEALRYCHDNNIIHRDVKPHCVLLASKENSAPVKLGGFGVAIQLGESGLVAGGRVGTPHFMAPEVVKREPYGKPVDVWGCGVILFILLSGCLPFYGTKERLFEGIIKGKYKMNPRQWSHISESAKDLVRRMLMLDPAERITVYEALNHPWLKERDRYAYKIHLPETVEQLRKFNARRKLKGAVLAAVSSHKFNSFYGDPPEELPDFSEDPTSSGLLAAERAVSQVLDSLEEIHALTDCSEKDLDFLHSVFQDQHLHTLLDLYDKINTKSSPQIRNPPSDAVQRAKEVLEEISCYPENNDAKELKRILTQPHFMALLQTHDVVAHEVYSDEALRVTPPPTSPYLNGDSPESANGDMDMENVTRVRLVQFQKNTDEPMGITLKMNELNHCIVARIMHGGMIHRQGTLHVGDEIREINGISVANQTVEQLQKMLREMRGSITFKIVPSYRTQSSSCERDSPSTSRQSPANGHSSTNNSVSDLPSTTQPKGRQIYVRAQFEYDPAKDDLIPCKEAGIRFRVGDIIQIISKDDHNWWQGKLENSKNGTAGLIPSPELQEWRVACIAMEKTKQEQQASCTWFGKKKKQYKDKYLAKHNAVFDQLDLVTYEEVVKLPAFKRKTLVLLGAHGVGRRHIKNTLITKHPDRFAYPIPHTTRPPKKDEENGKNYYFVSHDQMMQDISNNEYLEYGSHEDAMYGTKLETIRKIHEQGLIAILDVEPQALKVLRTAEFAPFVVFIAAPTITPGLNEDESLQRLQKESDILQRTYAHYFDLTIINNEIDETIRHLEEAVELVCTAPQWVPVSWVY
UniProt O43283, sequence (whole entry, looked up): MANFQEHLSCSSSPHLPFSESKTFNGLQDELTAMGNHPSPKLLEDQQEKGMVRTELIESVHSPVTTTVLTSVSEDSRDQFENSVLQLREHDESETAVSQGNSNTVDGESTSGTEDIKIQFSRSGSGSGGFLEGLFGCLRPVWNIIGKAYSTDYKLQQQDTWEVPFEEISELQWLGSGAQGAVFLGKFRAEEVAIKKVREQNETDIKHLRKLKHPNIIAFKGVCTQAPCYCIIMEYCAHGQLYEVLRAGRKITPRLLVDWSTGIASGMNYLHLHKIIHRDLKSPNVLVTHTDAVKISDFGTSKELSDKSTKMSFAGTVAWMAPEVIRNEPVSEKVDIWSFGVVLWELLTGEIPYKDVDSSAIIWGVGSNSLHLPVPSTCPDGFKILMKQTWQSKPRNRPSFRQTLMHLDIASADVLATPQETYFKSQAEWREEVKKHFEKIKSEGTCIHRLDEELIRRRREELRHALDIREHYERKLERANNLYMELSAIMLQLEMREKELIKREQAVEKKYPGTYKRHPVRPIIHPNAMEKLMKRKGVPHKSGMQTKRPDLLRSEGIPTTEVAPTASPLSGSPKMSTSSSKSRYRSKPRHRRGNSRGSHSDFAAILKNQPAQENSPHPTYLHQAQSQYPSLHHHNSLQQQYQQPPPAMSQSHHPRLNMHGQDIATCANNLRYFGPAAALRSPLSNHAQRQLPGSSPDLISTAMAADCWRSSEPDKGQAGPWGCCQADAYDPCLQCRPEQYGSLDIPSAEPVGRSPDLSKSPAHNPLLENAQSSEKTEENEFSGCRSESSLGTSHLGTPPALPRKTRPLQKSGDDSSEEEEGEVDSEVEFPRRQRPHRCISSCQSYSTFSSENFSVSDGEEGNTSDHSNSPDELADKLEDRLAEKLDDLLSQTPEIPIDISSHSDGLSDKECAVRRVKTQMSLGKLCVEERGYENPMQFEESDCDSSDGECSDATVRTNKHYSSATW
UniProt O15530, sequence (whole entry, looked up): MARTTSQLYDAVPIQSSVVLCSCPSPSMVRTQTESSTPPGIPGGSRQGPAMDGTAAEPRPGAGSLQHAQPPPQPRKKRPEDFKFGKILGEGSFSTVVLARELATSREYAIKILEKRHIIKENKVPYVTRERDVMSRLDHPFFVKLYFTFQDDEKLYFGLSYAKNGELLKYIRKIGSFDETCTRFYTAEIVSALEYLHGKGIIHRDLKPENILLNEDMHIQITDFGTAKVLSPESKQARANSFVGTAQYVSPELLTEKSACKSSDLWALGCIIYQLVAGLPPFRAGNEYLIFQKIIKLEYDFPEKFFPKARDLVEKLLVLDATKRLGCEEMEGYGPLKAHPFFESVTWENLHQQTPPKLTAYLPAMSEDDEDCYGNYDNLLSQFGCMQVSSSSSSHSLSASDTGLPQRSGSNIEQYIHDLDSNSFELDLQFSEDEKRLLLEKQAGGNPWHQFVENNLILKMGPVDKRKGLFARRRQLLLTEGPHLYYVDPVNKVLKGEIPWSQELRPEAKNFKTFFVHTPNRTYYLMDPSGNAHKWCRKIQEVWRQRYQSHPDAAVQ
UniProt P11802, sequence (whole entry, looked up): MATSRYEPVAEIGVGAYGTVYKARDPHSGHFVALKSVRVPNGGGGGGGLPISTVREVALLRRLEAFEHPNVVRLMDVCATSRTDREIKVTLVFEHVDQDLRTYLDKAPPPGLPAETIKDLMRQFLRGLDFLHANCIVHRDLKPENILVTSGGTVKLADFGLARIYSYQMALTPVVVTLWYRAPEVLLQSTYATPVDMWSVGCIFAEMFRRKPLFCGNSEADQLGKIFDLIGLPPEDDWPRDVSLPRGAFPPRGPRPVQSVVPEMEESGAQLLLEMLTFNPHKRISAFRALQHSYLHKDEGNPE

Study 1
Host: human
Medium: microsomes or S9
Tested at: 2 µM
Time: 0.5 h
SMILES | remaining compound [%]
Cc1cc(-c2cc(O)cc(CCC3CCCCN3)c2)ccn1 (stereo not shown) | 6.43
COc1ccc(N2C(=O)/C(=C\NN(C)C)c3ccccc3C2=O)cc1 | 91.5
CCS(=O)(=O)Nc1ccc(-n2nc(C)c(-c3ccc(Cl)cc3)cc2=O)cc1 | 54.6
Cc1cc(C)n(-c2ccc(C(=O)NCc3ccc(C)o3)cn2)n1 | 68.1
COc1ccccc1CNC(=O)c1cc2c(s1)CS(=O)(=O)C2 | 80.9
O=S1(=O)N=C(Nc2cccc3[nH]ccc23)c2ccccc21 | 73.1
COCc1nc(CCNS(=O)(=O)c2cccc(OC)c2)no1 | 0
CCn1cc(S(=O)(=O)N2CCc3n[nH]c(=O)n3CC2)cn1 | 49.3

Study 2
Cell line: HaCaT
Tested at: 100 µM
Time: 36 h
SMILES | viability
C[C@]12CC[C@@H]3c4ccc(OS(=O)(=O)O)cc4CC[C@H]3[C@@H]1CCC2=O | 96.3%
OC[C@H]1O[C@H](OC[C@H]2O[C@H](OC[C@H]3O[C@H](O[C@]4(CO)O[C@H](CO)[C@@H](O)[C@@H]4O)[C@H](O)[C@@H](O)[C@@H]3O)[C@H](O)[C@@H](O)[C@H]2O)[C@H](O)[C@@H](O)[C@H]1O | 58.6%
CCN(CC)C(=S)SSC(=S)N(CC)CC | 5.89%
C=CC1=C(C(=O)O)N2C(=O)[C@@H](NC(=O)/C(=N\OCC(=O)O)c3csc(N)n3)[C@H]2SC1 | 97.4%
N#C[C@@H]1CCCN1C(=O)CNC12CC3CC(CC(O)(C3)C1)C2 | 88.9%
C=CC(=O)N1CCC[C@@H](n2nc(-c3ccc(Oc4ccccc4)cc3)c3c(N)ncnc32)C1 | 5.96%
COCCCN1CCC(NC(=O)c2cc(Cl)c(N)c3c2OCC3)CC1 | 75.8%
Nc1nc2ncc(CNc3ccc(C(=O)N[C@@H](CCC(=O)O)C(=O)O)cc3)nc2c(=O)[nH]1 | 94.3%

Study 3
Structure (SMILES): CCOCCn1cc(C(=O)Nc2ccc(-n3nc(-c4cccnc4)cc3C(F)(F)F)cn2)ccc1=O
Read-out: cell-free assay
Method: competition with immobilised ligand
Tested at: 1 µM
target | remaining binding
STK26 (Homo sapiens, UniProt Q9P289) | 81%
MAST1 (Homo sapiens, UniProt Q9Y2H9) | 100%
ITK (Homo sapiens, UniProt Q08881) | 83%
MAP2K5 (Homo sapiens, UniProt Q13163) | 84%
Ribosomal protein S6 kinase alpha-5, N-terminal kinase domain (RPS6KA5, Homo sapiens, UniProt O75582) | 100%
COQ8B (Homo sapiens, UniProt Q96D53) | 100%
MAP3K9 (Homo sapiens, UniProt P80192) | 93%
IRAK1 (Homo sapiens, UniProt P51617) | 84%
GRK4 (Homo sapiens, UniProt P32298) | 100%
PDPK1 (Homo sapiens, UniProt O15530) | 87%
MAP3K13 (Homo sapiens, UniProt O43283) | 100%
GRK7 (Homo sapiens, UniProt Q8WTQ7) | 88%
MAPK13 (Homo sapiens, UniProt O15264) | 97%
Cyclin-dependent kinase 4, with cyclin D1 (CDK4, Homo sapiens, UniProt P11802) | 93%
HUNK (Homo sapiens, UniProt P57058) | 93%
CASK (Homo sapiens, UniProt O14936) | 85%

Study 4
SMILES: CC(C)n1cnc(-c2ccc(F)cc2)c1-c1ncc(C(=O)Nc2ccc(N3CCN(C)CC3)cc2)[nH]1
Method: phase 2a trial
Host: idiopathic pulmonary fibrosis patients
setting | patients with anaemia [%]
dose not given, adverse event grade 5, all dose arms pooled | 0
60 mg once daily, adverse event grade 3 | 0
dose not given, adverse event grade 4, all dose arms pooled | 0
60 mg once daily, adverse event grade 5 | 0
30 mg once daily, adverse event grade 2 | 0

Excerpt of the above (study 1):
SMILES | remaining compound [%]
COc1ccccc1CNC(=O)c1cc2c(s1)CS(=O)(=O)C2 | 80.9
O=S1(=O)N=C(Nc2cccc3[nH]ccc23)c2ccccc21 | 73.1
Cc1cc(-c2cc(O)cc(CCC3CCCCN3)c2)ccn1 (stereo not shown) | 6.43
CCS(=O)(=O)Nc1ccc(-n2nc(C)c(-c3ccc(Cl)cc3)cc2=O)cc1 | 54.6
COCc1nc(CCNS(=O)(=O)c2cccc(OC)c2)no1 | 0
COc1ccc(N2C(=O)/C(=C\NN(C)C)c3ccccc3C2=O)cc1 | 91.5
